Experimental data pooled from the literature.
Numbered parts are unrelated; each lists some results of a single study. Substitutions count along the parent as printed.

Study 1 — target: CCND1, cyclin fold, Cln2 fusion (human); technique: yeast growth competition, sequencing; medium: yeast; notes: strong parent motif; baseline: not given; reading: higher = stronger binding; endpoint: normalised enrichment score
Starting sequence: RBL2 docking peptide (human); STTRRRLFVENDS; partner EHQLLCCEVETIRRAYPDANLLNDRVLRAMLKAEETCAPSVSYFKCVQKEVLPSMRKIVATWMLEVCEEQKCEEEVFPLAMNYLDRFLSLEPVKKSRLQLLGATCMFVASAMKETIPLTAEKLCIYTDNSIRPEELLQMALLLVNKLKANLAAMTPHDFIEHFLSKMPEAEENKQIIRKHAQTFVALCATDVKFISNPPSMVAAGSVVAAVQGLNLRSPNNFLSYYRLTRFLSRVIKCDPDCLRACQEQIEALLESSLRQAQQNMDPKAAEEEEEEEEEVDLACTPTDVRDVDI
SGTRRRLFVENDS [T2G]: 1.54
STTRCRLFVENDS [R5C]: 0.665
SHTRRRLFVENDS [T2H]: 0.701
STPRRRLFVENDS [T3P]: 1.16
SATRRRLFVENDS [T2A]: 0.775
STTRRRLIVENDS [F8I]: 0.0555
STHRRRLFVENDS [T3H]: -0.337
TTTRRRLFVENDS [S1T]: 0.503
STTRRRLGVENDS [F8G]: 0.0965
STTRRRLFVANDS [E10A]: -0.00806
PTTRRRLFVENDS [S1P]: 0.361
WTTRRRLFVENDS [S1W]: -0.11

Study 2 — technique: EMSA with sequencing; form: double-stranded DNA, one strand shown; medium: in vitro; tested at: 10 and 20 nM; baseline: negative control set to 0; reading: higher = stronger binding; endpoint: normalised bound fraction
Target: Hepatocyte nuclear factor 3-alpha (Foxa1, Mus musculus, UniProt P35582, residues 1-468, full length assumed)
UniProt P35582, sequence (whole entry, looked up): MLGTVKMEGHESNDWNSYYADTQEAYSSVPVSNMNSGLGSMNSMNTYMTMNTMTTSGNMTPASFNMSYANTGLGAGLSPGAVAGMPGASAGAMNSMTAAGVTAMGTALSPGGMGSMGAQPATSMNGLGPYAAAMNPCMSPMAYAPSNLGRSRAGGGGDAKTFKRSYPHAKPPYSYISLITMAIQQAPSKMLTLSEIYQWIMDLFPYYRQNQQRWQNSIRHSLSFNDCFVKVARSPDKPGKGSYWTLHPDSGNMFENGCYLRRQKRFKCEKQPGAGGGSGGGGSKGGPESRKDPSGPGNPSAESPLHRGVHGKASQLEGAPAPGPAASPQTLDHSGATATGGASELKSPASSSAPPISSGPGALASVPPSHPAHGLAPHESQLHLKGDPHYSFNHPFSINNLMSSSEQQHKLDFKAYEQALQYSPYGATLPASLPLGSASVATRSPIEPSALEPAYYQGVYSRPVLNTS
Notes: whole designed probe, mean of two concentrations, ends assumed
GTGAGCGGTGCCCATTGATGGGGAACTGTTCTTCTATGAGACTATTGTCATCTCGGTAATTAAGAATGATTTCCAGTTCTCTGGAACTTCTCGTCTGATCCAGTAGGTCCTTAGCAAATTGTTTGCACTGCCGTGACAGCTCTTCATACTCCGACTTGAATTCATTTTCCACCTTGCTCAGTTCCTGAAGTTCCCAACTTAACTGAAAGGCTGTGAGAATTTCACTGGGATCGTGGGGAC: 0.11 ratio
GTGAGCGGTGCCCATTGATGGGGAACCATAGTGCTGCCAAGTAATTCTCTAGGTTGTAGAATTATTATTTATTCAGAACACTAAGCTAGATTCAGTTTTCTGCTAAGCTACAAAATAAGTAATCTTGAATTACTTGGATTCCAGGATCCTGGATATAGACTAAAGATGACATTCCATTATATTTAGAAAATGACTGTTAAGTAAGAGAAAATTTCCAGATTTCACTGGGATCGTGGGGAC: 0.211 ratio
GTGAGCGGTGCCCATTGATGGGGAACATTGATATAATAAAAAAACACTGATAAAGTTTATTAAAACACTTAAAGGACATTTCTCATTTTGCATAATATTTTGTAATAAAATCATCTATGTAATTTTGGAAAATGTGTAGGGAAGTGAGAAGAACATTAACCACACAAAGTGTACCCCTGAGTCTCTATGAGATTTCATTTCCTTTTGTAAAATAAAATGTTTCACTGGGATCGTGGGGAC: 0.0291 ratio
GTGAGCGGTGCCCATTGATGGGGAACATTTTTTTAATACTGAGTTTTATCTGCAACAGTAAAACATATATGAAGGAATTCTGCCTTCACAACAAATGGCTCCCAGATAAAGAGAGCCATGTTTACTTATATTTATAGGTCAAATATAACATCTTGCAATCCTGATTGGATTACATTTGGGTCAGTTTTAATAAAAGCAAGAAATTCCTATCTTCGGTAATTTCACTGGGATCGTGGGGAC: 0.353 ratio
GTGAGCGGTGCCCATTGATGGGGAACTCCATTAATAAGCCCATTCCACCCACATTCACAAACTTGCAACAGAGAAAAGATGGGAATATTTAGAATAATATATCCATACAATTTATGTCCCTGTTTACTTTTAATATTTTTGGAGCCCAATTCTCCGGATGTGCTCAAATCAGCCTCTGTAGACTCAGATGTTTTGAAAAGTATTTTGATTGCTAACATCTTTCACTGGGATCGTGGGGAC: 0.265 ratio
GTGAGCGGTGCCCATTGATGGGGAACCTGAAAGACTGGCGTAACATGATGAAGAAGGAGGTATTCTGGACCATGTAAAGGACAGCGGATTGCTAAGGTCAACATTTAATGAGTCAGAAAGTCAATAAGAGATGAGTTTGGAATAGTAGGGTCTGGAGATGACGGAAGAGCTGGAATGAATGTTAAACTCAAAAGTGTCAACTCCCATAGGCAGTGGGCATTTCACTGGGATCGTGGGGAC: 0.237 ratio

Study 3 — technique: RNA Bind-n-Seq; form: RNA; medium: in vitro; tested at: not given; baseline: input RNA pool; reading: higher = stronger binding; endpoint: bound/input enrichment
Target: RING finger protein unkempt homolog, zinc fingers 1-6, GST-SBP tag (UNK, Homo sapiens, UniProt Q9C0B0, residues 30-357)
Notes: RNA with constant flanks, human and mouse sites, ends assumed
Construct (chain): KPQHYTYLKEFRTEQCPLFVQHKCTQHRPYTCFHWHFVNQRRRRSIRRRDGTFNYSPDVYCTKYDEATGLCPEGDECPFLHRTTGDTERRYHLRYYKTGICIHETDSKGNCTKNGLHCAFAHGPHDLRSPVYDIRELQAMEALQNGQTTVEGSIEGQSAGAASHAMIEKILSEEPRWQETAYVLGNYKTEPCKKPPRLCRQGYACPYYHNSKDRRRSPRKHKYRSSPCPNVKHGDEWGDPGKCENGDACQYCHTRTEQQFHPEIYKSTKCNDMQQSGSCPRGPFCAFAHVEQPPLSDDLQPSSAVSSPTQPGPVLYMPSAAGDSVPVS
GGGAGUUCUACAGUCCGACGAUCCGGCGCGAGGCAGUAUGGUUUGAAGUGGUGAACAUGGAUUUUUCUCGGCUUCACAUGUACAGUCCUCCCCAGUGUGUGCCGGAGAACACGGGCUACACGUAUGCGCUCAGUUCCAGCUAUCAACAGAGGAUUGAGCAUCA: 0.0949 ratio
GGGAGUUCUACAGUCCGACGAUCCAUGAUCUUGUUACUGUGAUAUUUUAAAUAUCCACAGUACUCACUUUUUCCAAAUGAUCCUAGUAAUUGCCUAGAAAUAUCUUUCUCUUACCUGUUAUUUAUCAAUUUUUCCCAGUAUUUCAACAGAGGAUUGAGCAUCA: 5.94 ratio
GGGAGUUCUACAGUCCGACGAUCAAAAUUCCUCCUAUGGUAACCACAGAUCAAAAACAAGAAGAGAGUAAACUAGAGAAAGACAAAGCUUCAGCUCUUCAAGAAAAAAAGCCACUCCCUGAAGAAAAAAAACUAAUCCCUGAACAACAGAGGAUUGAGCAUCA: 0.266 ratio
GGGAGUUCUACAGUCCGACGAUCGCAGAUGCAGUGGGGGUAACAGUUGUUCUGAUUACUUGCACCUACCGAGGUCAAGAAUUUAUUAGAGUUGGCUACUAUGUAAAUAAUGAAUACACUGAAACAGAAUUAAGGGAAAACCCACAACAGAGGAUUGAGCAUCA: 0.309 ratio
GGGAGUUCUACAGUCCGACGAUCGUAGAAUUUAUUCUGUCUUUCAUUGACCACAUUGCUGGAGAUGAGGAUCACACAGAUGGAGUAGUAGCUUGUGCUGCUGGACUAAUAGGGGACUUAUGUACAGCAUUUGGGAAGGAUGUACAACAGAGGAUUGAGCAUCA: 0.32 ratio
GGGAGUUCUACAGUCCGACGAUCAAGUACUAAUAUUCCAGAAAUUUUUGAAAGCAGUAACCUUAAUUUCCUAUGUAUUUCAUUCCACUUUUGCAUAUAGGUCAAAUAGCAAUGUGUAUGCACAUUCUCUUUAGUUAAGGCACCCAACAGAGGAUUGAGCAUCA: 6.33 ratio
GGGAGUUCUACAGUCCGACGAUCGUUGUACCGAAAGGCAAAGGAGAACAGAUUGCAAGGGAGCAUGGUAUUAGGUUUUUUGAGACUAGUGCAAAAGCAAAUAUAAACAUCGAAAAGGCGUUCCUCACAUUAGCUGAAGACAUCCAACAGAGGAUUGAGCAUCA: 1.88 ratio

Mixed results
PhoQ, residues 284 288 289 292 302 303 ALVSVA — fold induction (PhoP, residues 12 14 15 18 19 LYFRQ (Escherichia coli, UniProt P23836); Sort-seq, item: YFP reporter; E. coli; PhoQ-PhoP variant library, added: 10 µM Mg2+; baseline: high Mg2+ state, higher = stronger signaling): 4.89

Some of these lines once more (study 1):
STTRRRLGVENDS [F8G]: 0.0965
STTRRRLFVANDS [E10A]: -0.00806
PTTRRRLFVENDS [S1P]: 0.361
